Assay results collected from several papers.
Lines come from different studies, so protocols differ. “And” joins repeats or separate records; there may be more than shown. Numbers after ± are the reported error.
Chain of UniProt P07949 (whole entry, looked up): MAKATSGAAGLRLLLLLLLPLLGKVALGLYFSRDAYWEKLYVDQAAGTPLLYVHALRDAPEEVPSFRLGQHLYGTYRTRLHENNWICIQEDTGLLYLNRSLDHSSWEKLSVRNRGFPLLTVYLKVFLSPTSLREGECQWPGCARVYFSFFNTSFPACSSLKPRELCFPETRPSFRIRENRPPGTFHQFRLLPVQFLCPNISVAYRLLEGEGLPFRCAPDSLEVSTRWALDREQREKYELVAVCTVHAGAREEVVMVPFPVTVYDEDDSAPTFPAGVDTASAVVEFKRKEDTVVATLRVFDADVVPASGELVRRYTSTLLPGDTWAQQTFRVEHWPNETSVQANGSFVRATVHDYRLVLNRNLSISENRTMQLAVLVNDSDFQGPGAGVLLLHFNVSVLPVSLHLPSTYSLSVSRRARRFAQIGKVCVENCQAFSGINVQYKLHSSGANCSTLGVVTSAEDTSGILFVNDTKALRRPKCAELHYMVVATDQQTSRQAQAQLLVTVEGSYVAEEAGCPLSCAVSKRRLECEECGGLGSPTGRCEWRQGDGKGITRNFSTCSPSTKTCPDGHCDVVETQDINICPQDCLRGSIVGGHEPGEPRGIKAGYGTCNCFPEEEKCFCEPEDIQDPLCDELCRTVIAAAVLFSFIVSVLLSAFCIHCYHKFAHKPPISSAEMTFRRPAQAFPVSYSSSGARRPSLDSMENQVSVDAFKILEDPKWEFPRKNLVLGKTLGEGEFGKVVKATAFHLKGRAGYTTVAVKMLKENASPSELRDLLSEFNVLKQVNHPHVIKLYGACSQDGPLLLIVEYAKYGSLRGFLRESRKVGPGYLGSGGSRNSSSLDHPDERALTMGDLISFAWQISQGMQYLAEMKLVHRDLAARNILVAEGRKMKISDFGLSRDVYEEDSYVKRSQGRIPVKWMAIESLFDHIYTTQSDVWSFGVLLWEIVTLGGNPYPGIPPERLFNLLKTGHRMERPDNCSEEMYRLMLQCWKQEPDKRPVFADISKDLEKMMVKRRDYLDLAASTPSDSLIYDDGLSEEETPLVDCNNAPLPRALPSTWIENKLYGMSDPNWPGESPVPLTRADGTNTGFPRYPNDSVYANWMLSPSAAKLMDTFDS
Chain of UniProt P23467 (whole entry, looked up): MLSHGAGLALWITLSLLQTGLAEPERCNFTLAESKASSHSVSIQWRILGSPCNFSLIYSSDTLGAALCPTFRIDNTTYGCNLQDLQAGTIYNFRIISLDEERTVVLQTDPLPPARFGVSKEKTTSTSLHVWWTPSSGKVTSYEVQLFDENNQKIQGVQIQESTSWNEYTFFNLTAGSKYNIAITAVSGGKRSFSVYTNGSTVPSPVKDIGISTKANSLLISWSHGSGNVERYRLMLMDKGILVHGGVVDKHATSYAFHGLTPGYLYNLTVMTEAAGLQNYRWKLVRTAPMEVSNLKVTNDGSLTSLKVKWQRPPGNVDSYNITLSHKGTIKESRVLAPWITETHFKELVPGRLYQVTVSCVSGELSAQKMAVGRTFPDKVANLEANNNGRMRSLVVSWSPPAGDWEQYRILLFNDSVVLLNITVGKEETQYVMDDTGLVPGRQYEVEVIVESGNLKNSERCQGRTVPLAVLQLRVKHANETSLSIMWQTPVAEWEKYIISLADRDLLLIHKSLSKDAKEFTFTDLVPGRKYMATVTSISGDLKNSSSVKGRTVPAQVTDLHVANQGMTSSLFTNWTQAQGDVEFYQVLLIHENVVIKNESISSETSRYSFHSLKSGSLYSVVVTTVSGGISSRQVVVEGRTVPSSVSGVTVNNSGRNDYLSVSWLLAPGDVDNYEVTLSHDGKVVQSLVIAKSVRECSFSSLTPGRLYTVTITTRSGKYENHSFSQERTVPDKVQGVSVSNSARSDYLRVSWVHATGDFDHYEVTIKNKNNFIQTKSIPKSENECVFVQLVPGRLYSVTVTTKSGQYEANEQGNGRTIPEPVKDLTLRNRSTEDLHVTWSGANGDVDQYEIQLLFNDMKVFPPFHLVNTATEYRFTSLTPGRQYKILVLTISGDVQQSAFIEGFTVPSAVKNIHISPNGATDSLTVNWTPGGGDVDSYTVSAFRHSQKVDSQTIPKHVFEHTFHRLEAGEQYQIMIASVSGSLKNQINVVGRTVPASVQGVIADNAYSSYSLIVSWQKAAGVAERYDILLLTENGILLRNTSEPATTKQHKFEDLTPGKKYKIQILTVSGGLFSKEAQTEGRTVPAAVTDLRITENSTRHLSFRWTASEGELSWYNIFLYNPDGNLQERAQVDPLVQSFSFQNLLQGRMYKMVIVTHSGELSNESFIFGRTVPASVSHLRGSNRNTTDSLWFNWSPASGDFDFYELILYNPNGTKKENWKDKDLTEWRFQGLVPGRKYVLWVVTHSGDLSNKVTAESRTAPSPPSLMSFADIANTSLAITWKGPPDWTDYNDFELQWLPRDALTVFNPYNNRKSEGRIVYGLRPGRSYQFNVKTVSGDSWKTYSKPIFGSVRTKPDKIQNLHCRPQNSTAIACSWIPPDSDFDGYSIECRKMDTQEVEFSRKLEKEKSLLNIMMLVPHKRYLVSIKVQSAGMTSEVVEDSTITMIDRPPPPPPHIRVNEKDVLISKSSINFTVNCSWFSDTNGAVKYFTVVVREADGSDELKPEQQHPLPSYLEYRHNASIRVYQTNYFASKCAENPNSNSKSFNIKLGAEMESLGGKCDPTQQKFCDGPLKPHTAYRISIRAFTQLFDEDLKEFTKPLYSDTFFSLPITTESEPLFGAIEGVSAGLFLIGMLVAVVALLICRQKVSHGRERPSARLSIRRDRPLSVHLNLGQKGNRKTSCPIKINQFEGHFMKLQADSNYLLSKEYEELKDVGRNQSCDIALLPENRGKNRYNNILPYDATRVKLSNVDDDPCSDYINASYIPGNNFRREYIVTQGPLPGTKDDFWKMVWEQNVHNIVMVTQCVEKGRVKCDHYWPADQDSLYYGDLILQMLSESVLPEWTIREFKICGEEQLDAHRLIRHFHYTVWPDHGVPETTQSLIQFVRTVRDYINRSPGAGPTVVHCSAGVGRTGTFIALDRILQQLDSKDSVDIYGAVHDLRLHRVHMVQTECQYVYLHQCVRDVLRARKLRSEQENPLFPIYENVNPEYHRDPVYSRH
Chain of UniProt P49753 (whole entry, looked up): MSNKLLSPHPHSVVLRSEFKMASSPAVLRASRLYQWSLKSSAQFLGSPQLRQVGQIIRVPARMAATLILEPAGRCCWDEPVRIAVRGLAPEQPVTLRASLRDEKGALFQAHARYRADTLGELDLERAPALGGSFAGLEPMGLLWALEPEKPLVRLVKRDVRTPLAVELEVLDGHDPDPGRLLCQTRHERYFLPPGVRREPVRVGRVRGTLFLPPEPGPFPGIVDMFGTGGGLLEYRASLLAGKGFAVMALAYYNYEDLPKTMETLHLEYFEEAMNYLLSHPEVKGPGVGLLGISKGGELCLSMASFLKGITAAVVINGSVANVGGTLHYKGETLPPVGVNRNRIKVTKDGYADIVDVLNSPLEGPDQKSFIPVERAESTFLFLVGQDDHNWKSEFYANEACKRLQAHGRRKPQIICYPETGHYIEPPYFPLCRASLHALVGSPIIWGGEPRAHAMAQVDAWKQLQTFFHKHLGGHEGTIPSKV

Structure (SMILES)	tested on	assay	test system	setting	scale	endpoint	value
COc1ncccc1-c1cnn2ccc(N3CCN(C(=O)OC(C)C)CC3)nc12	–	–	rat, rotarod test, brain	10 mg/kg, 180 min	–	drug concentration	3600 nM
CCc1ccc(CC/C=C/c2ccc3c(c2)C(=O)CC3)cc1	–	–	Sprague-Dawley rat, male	oral, 450 mg/kg/day, 14 days	–	Lymphocyte percentage	80.3%
O=c1c2cc(Cl)c(CO)cc2[nH]c(=S)n1Cc1cncnc1	–	–	mouse, plasma	intravenous, dose not given	–	volume of distribution at steady state	0.86 L/kg
C=CC(=O)Nc1cc(Nc2nccc(Nc3cc(Cl)c(F)cc3C(C)(C)O)n2)c(OC)cc1N1CC[C@@H](N(C)C)C1	–	treatment-emergent adverse events	human	oral, 300 mg, phase I clinical trial	–	incidence of vomiting	25.5%
COc1cc2c(Oc3ccc4[nH]c(C)cc4c3F)ccnc2cc1OCC1(N)CC1	–	–	paediatric recurrent refractory sarcoma	8 mg	–	grade 3 abdominal distension	0%
C[C@]1(CO)Cc2ncn(-c3ccc(C#N)c(Cl)c3)c2C(=O)O1	–	–	human, plasma	20 mg single dose, geometric mean	–	AUC(0-inf)	4.36 µM·h
OC1(c2ccc(Cl)c(C(F)(F)F)c2)CCN(CCCC(c2ccc(F)cc2)c2ccc(F)cc2)CC1	African green monkey cells	–	–	5 days	–	CC50	3.59 µM
COc1cc(Nc2ncc(F)c(Nc3ccc4c(n3)NC(=O)C(C)(C)O4)n2)cc(OC)c1OC	Receptor-type tyrosine-protein phosphatase beta (Homo sapiens, UniProt P23467)	–	–	PTPB	–	IC50	> 10 µM
[Cl][212Pb][Cl]	–	item: 212Pb	athymic mouse, C4-2 prostate xenograft, salivary gland	intravenous, dose not given, 2 h	–	tissue uptake	not detected
COc1ccc(N2C(=O)N(c3c(C)cccc3Cl)Cc3cnc(Nc4ccc(C5CCN(C)CC5)cc4OC)nc32)nc1	RET (Homo sapiens, UniProt P07949)	kinase activity	–	0.5 µM	–	inhibition	92%
O=C(Nc1ccccc1)C1CCN(C(=O)Oc2cccnc2)CC1	–	adverse event reporting	healthy women	oral, 60 mg	–	subjects with tremor	0%
COc1ccc([C@@H]2CC(=O)c3c(O)cc(O)cc3O2)cc1O	–	–	male Sprague-Dawley rats, lean, faeces	oral, 100 mg/kg of neohesperidin, 48 h	–	cumulative faecal excretion	3470 ± 1020 ng
CCCC(=O)c1ccccc1	–	–	–	pH 7.4	–	logD (chromatographic)	5.51
O=c1ccc2cc3ccoc3cc2o1	–	post-procedure stability	rat plasma	8 ng/mL, 3 h, room temperature	–	accuracy	115%
CC(C)C[C@H](NC(=O)[C@H](CCCCN)NC(=O)OCC1c2ccccc2-c2ccccc21)C(=O)N[C@H](C(=O)N[C@@H](Cc1ccccc1)C(=O)N[C@@H](Cc1ccccc1)C(=O)N[C@@H](CCCCN)C(=O)NCC(=O)N[C@@H](Cc1ccccc1)C(=O)N[C@@H](C)C(=O)N[C@@H](Cc1c[nH]c2ccccc12)C(=O)N[C@@H](CC(N)=O)C(=O)N[C@H](C(=O)N[C@H]1CSSC[C@@H](C(=O)N[C@@H](Cc2c[nH]cn2)C(=O)N[C@@H](CCCNC(=N)N)C(=O)N[C@@H](CCCNC(=N)N)C(=O)N[C@@H](C)C(=O)N[C@@H](CC(N)=O)C(N)=O)NC(=O)[C@H](C(C)C)NC(=O)[C@H](CCCNC(=N)N)NC(=O)[C@H](C(C)C)NC(=O)CNC(=O)[C@H](CC(N)=O)NC(=O)[C@H](CCCNC(=N)N)NC(=O)[C@H](Cc2ccc(O)cc2)NC(=O)[C@H](C(C)C)NC1=O)C(C)C)C(C)C	–	circular dichroism, item: Random-coil	PBS	80 µM, pH 7.4, together with: LTA 1 µM	–	secondary structure content	29.6%
N[C@@H]1c2ccccc2OC12CCN(c1cnc3c(N4CCCc5ncccc54)n[nH]c3n1)CC2	–	–	advanced solid tumour patients	oral, 10 mg once daily	–	serious TEAE grade ≥3	0%
CN(C(=O)n1cnc(-c2ccc[n+]([O-])c2)c1)C1CCCCC1	–	–	Wistar rat, cerebellum	oral, 10 mg/kg, 1 h, single dose	–	concentration	315 ± 39.1 ng/g
O=C(c1ccc(Cl)cc1)N1CCN2C(=O)N(OC(=O)N3CCOc4ccccc43)C(=O)C2C1 (centres unmarked)	Acyl-coenzyme A thioesterase 2, mitochondrial (ACOT2, Homo sapiens, UniProt P49753)	MS-based ABPP	SW-620 conditioned medium	10 µM, 1 h, 37 °C	reference: compound over DMSO, lower = more inhibition	median protein ratio	1.02

Structure (SMILES)	tested on	assay	test system	setting	scale	endpoint	value
C[C@H]1COCCN1c1nc(NCc2cccnc2C(F)(F)F)c2cccnc2n1	–	–	anaesthetized rat	intravenous, 30 mg/kg	reference: control	PR change	25.9%
C[C@@H](O)[C@@H](CO)NC(=O)[C@@H](CCCNC(=N)N)NC(=O)[C@@H]1CCCN1C(=O)[C@@H]1CSSC[C@H](NC(=O)[C@H](Cc2ccccc2)NC(=O)CN2CCN(CC(=O)O)CCN(CC(=O)O)CCN(CC(=O)O)CC2)C(=O)N[C@@H](Cc2ccc(O)cc2)C(=O)N[C@@H](Cc2ccccc2)C(=O)N[C@@H](CCC(N)=O)C(=O)N[C@@H](CC(N)=O)C(=O)N1 [gallium-68 labelled]	–	–	Wistar rat, heart	intravenous, 8 MBq, 120 min, group mean	–	tissue uptake	0.03 %ID/g
CC[C@H](C)[C@H](NC(=O)[C@H](Cc1ccccc1)NC(=O)[C@H](CCC(=O)O)NC(=O)[C@H](CCCNC(=N)N)NC(=O)[C@H](C)NC(=O)[C@H](C)NC(=O)[C@H](CCC(N)=O)NC(=O)[C@H](CCC(=O)O)NC(=O)[C@H](CCC(=O)O)NC(=O)[C@H](CC(C)C)NC(=O)[C@H](Cc1ccc(O)cc1)NC(=O)[C@H](CO)NC(=O)[C@H](CO)NC(=O)[C@@H](NC(=O)[C@H](CC(=O)O)NC(=O)[C@H](CO)NC(=O)[C@@H](NC(=O)[C@H](Cc1ccccc1)NC(=O)[C@@H](NC(=O)CNC(=O)[C@H](CCC(=O)O)NC(=O)[C@H](C)NC(=O)CCc1cnc[nH]1)[C@@H](C)O)[C@@H](C)O)C(C)C)C(=O)N[C@@H](C)C(=O)N[C@@H](Cc1c[nH]c2ccccc12)C(=O)N[C@@H](CC(C)C)C(=O)N[C@H](C(=O)N[C@@H](CCCNC(=N)N)C(=O)NCC(=O)N[C@@H](CCCNC(=N)N)C(=O)N[C@@H](CCCCNC(=O)COCCOCCNC(=O)COCCOCCNC(=O)CC[C@H](NC(=O)CCCCCCCCCCCCCCCCC(=O)O)C(=O)O)C(=O)NCC(=O)NCC(=O)N[C@@H](CO)C(=O)N[C@@H](CCCCNC(=O)[C@H](CCCCNC(=O)[C@H](CCCCNc1c(NCCCCCN(O)C(=O)CCC(=O)NCCCCCN(O)C(=O)CCC(=O)NCCCCCN(O)C(C)=O)c(=O)c1=O)Nc1c(NCCCCCN(O)C(=O)CCC(=O)NCCCCCN(O)C(=O)CCC(=O)NCCCCCN(O)C(C)=O)c(=O)c1=O)NC(=O)[C@H](CCCCNc1c(NCCCCCN(O)C(=O)CCC(=O)NCCCCCN(O)C(=O)CCC(=O)NCCCCCN(O)C(C)=O)c(=O)c1=O)Nc1c(NCCCCCN(O)C(=O)CCC(=O)NCCCCCN(O)C(=O)CCC(=O)NCCCCCN(O)C(C)=O)c(=O)c1=O)C(=O)O)C(C)C [zirconium-89 labelled]	–	ex vivo gamma counting	male Sprague-Dawley rats, lung	intravenous, 1 nmol, 24 h	–	tissue uptake	0.606 %ID/g
COc1ccc(-c2c(-c3ccc(C#N)c(F)c3)nc(N3CCC(N)CC3)n(C)c2=O)cc1F	–	item: conjunctival hemorrhage	human patients	oral, dose not given, dose escalation	–	grade 3-4 TRAE incidence	0%
CN(C)C(=O)c1cc2cnc(Nc3ccc(N4CCNCC4)cn3)nc2n1C1CCCC1	–	item: dyspnoea	HR+/HER2− advanced breast cancer patients	oral, dose not given, not drug-related	–	serious adverse event incidence	1.5%
N#C[C@@]1(n2ccc(N)nc2=O)O[C@H](CO)[C@@H](O)[C@H]1O	–	–	CD-1 mouse, lung	intravenous, dose not given, 7 h	–	concentration	1540 nM and 1220 nM and 830 nM
O=C(c1ccc(F)c(F)c1Nc1ccc(I)cc1F)N1CC(O)([C@@H]2CCCCN2)C1	–	–	human patients	oral, dose not given, dose escalation, suspension	–	fatal adverse events	0%
CCCCCOc1ccc(-c2ccc(-c3ccc(C(=O)N[C@H]4C[C@@H](O)[C@@H](OCC[N+](C)(C)C)NC(=O)[C@@H]5[C@@H](O)[C@@H](C)CN5C(=O)[C@H]([C@@H](C)O)NC(=O)[C@H]([C@H](O)[C@@H](O)c5ccc(O)cc5)NC(=O)[C@@H]5C[C@@H](O)CN5C(=O)[C@H]([C@@H](C)O)NC4=O)cc3)cc2)cc1	–	–	adult patients in ICU, plasma	intravenous, 400 mg loading dose, after first dose, geometric mean	–	Cmin	1940 ng/mL
CO[C@H]1C[C@@H]2CC[C@@H](C)[C@@](O)(O2)C(=O)C(=O)N2CCCC[C@H]2C(=O)O[C@H]([C@H](C)C[C@@H]2CC[C@@H](OC(=O)NCCOCCOCCOCCOCCOCCOCCOCCOCCC(=O)N3CCc4cc(Cn5nc(-c6ccc7oc(N)nc7c6)c6c(N)ncnc65)ccc4C3)[C@H](OC)C2)C[C@@H](O)[C@H](C)/C=C(\C)[C@@H](O)[C@@H](OC)C(=O)[C@H](C)C[C@H](C)/C=C/C=C/C=C/1C	–	phase 1 dose escalation	advanced solid tumour patients	intravenous, 12 mg weekly, grade ≥3	–	any TRAE incidence	33.3%
[O-][S+]1CCc2nc(N3CCC(c4ncc(Cl)cn4)CC3)nc(NC3(CO)CCC3)c21 (centres unmarked)	–	item: Constipation	healthy male humans	multiple doses, all groups	–	adverse event incidence	0%
CC[C@H](C)[C@H](NC(=O)[C@H](Cc1ccccc1)NC(=O)[C@H](CCC(=O)O)NC(=O)[C@H](CCCNC(=N)N)NC(=O)[C@H](C)NC(=O)[C@H](C)NC(=O)[C@H](CCC(N)=O)NC(=O)[C@H](CCC(=O)O)NC(=O)[C@H](CCC(=O)O)NC(=O)[C@H](CC(C)C)NC(=O)[C@H](Cc1ccc(O)cc1)NC(=O)[C@H](CO)NC(=O)[C@H](CO)NC(=O)[C@@H](NC(=O)[C@H](CC(=O)O)NC(=O)[C@H](CO)NC(=O)[C@@H](NC(=O)[C@H](Cc1ccccc1)NC(=O)[C@@H](NC(=O)CNC(=O)[C@H](CCC(=O)O)NC(=O)[C@H](C)NC(=O)CCc1c[nH]cn1)[C@@H](C)O)[C@@H](C)O)C(C)C)C(=O)N[C@@H](C)C(=O)N[C@@H](Cc1c[nH]c2ccccc12)C(=O)N[C@@H](CC(C)C)C(=O)N[C@H](C(=O)N[C@@H](CCCNC(=N)N)C(=O)NCC(=O)N[C@@H](CCCNC(=N)N)C(=O)N[C@@H](CCCCNC(=O)COCCOCCNC(=O)COCCOCCNC(=O)CC[C@H](NC(=O)CCCCCCCCCCCCCCCCC(=O)O)C(=O)O)C(=O)NCC(=O)NCC(=O)N[C@@H](CO)C(=O)N[C@@H](CCCCNc1c(NCCCCCN(O)C(=O)CCC(=O)NCCCCCN(O)C(=O)CCC(=O)NCCCCCN(O)C(C)=O)c(=O)c1=O)C(=O)O)C(C)C [zirconium-89 labelled]	–	–	rat, pancreas	iv, 3 nmol/kg, 4 h, ex vivo	–	tissue uptake	0.3 %ID/g
Cn1cncc1-c1c(F)cncc1NC(=O)c1c(N)nn2cc(F)cnc12	–	–	human patients	oral, 220 mg once daily, 2 weeks on 1 week off	–	patients grade ≥3 Anemia	67%
C[C@H]1CN(c2n[nH]c3nc(N[C@H]4CC[C@H](NS(=O)(=O)CCC(F)(F)F)CC4)ncc23)CCO1	ATP1A1 (Homo sapiens, UniProt P05023)	inhibitor, Kinobeads competition profiling	–	0.032 µM	reference: vehicle	relative abundance	1.22
CN1CC[C@@H](c2c(O)cc(O)c3c(=O)cc(-c4ccc(C(F)(F)F)cc4Cl)oc23)[C@@H]1CO	–	item: rectal abscess	B-cell malignancies or AML	oral, 50 mg, grade 3 to 4, continuous dosing	–	patients with adverse event	0%
C=C(CN(C(=O)c1c(C(F)F)nn(C)c1F)C1CC1)c1ccc(Cl)cc1Cl	–	static acute toxicity test	zebrafish (Brachydanio rerio)	0.578 mg a.i./L, 24 h	–	mortality	0%
CC(=O)[C@@]12O[C@](C)(c3ccccc3)O[C@@H]1C[C@H]1[C@@H]3CCC4=CC(=O)CC[C@]4(C)[C@H]3CC[C@@]12C	African green monkey cells	–	–	5 days	–	CC50	15.5 µM
COS(C)(=O)=O	–	alkaline comet	male Hsd:ICR (CD-1) mouse, liver	oral, 40 mg/kg/day, positive control	–	tail DNA	17.4%

Some of these lines once more:
Structure (SMILES)	tested on	assay	test system	setting	scale	endpoint	value
O=C(c1ccc(F)c(F)c1Nc1ccc(I)cc1F)N1CC(O)([C@@H]2CCCCN2)C1	–	–	human patients	oral, dose not given, dose escalation, suspension	–	fatal adverse events	0%
CCCCCOc1ccc(-c2ccc(-c3ccc(C(=O)N[C@H]4C[C@@H](O)[C@@H](OCC[N+](C)(C)C)NC(=O)[C@@H]5[C@@H](O)[C@@H](C)CN5C(=O)[C@H]([C@@H](C)O)NC(=O)[C@H]([C@H](O)[C@@H](O)c5ccc(O)cc5)NC(=O)[C@@H]5C[C@@H](O)CN5C(=O)[C@H]([C@@H](C)O)NC4=O)cc3)cc2)cc1	–	–	adult patients in ICU, plasma	intravenous, 400 mg loading dose, after first dose, geometric mean	–	Cmin	1940 ng/mL
CO[C@H]1C[C@@H]2CC[C@@H](C)[C@@](O)(O2)C(=O)C(=O)N2CCCC[C@H]2C(=O)O[C@H]([C@H](C)C[C@@H]2CC[C@@H](OC(=O)NCCOCCOCCOCCOCCOCCOCCOCCOCCC(=O)N3CCc4cc(Cn5nc(-c6ccc7oc(N)nc7c6)c6c(N)ncnc65)ccc4C3)[C@H](OC)C2)C[C@@H](O)[C@H](C)/C=C(\C)[C@@H](O)[C@@H](OC)C(=O)[C@H](C)C[C@H](C)/C=C/C=C/C=C/1C	–	phase 1 dose escalation	advanced solid tumour patients	intravenous, 12 mg weekly, grade ≥3	–	any TRAE incidence	33.3%
